Measured values collected from several papers.
A part holds a random share of what one study measured. Changes are numbered by the printed parent chain.

Set 1 — target: CCND3, cyclin fold, Cln2 fusion (human); technique: yeast growth competition, sequencing; matrix: yeast; setting: weak parent motif; relative to: not given; direction: higher = stronger binding; quantity: normalised enrichment score
Starting sequence: PKMYT1 docking peptide (human); SFEPRNLLSLFED
Change = E12W; value = 0.0253
Change = R5K F11L; value = -0.291
Change = P4H; value = 0.0736
Change = L10S; value = -0.00109
Change = L8Y; value = 0.143
Change = L8R; value = 0.0558
Change = S9H; value = 0.113
Change = L10F; value = 0.02
Change = E3T; value = 0.0361
Change = P4G; value = 0.0863
Change = F11I; value = 0.114
Change = D13M; value = 0.143
Change = F11G; value = 0.0685
Change = E12D; value = 0.14
Change = F11R; value = 0.0375

Set 2 — technique: universal PBM; molecule type: double-stranded DNA, one strand shown; matrix: in vitro; concentration: not given; direction: higher = stronger binding; quantity: E-score
Target: Sal-like protein 4, full length isoform B (SALL4, Homo sapiens, UniProt Q9UJQ4-2, residues 1-616)
Setting: 8-mer, flanks averaged, mean of replicates
Construct (chain): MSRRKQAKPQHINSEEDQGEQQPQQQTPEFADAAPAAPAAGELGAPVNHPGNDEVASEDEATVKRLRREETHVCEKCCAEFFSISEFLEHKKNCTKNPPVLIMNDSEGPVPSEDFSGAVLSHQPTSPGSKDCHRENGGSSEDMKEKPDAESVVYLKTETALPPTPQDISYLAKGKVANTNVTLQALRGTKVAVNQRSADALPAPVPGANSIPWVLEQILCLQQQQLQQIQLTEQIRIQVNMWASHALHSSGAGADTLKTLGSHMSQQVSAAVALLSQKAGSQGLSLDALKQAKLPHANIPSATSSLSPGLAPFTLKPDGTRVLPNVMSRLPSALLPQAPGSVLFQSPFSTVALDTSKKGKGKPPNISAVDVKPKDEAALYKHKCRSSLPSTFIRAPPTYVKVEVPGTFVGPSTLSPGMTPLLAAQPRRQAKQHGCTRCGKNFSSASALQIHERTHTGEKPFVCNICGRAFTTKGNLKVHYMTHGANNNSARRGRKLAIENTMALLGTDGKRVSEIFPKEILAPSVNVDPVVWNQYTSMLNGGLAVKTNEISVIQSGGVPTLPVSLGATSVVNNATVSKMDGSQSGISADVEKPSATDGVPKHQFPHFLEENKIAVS
Sequence = ACAACTGG; value = -0.174
Sequence = ACACCAGC; value = -0.245
Sequence = TCGACACA; value = 0.0731
Sequence = CAACAGAG; value = -0.105
Sequence = CGAAGAAG; value = -0.0648
Sequence = ATTTGTTG; value = 0.22
Sequence = CCGTAACG; value = -0.249
Sequence = TTACTGAA; value = 0.195
Sequence = ATCTGTGA; value = 0.0694
Sequence = AACTCATC; value = -0.0389
Sequence = CATGCAGG; value = -0.231
Sequence = AACTTTGG; value = 0.0629
Sequence = GGAACCTA; value = -0.0151
Sequence = AACTACAC; value = 0.216
Sequence = CTGACTGA; value = -0.22
Sequence = CAACTTGC; value = -0.176
Sequence = AATTCCGG; value = -0.0326
Sequence = GCATCTGA; value = -0.0914
Sequence = CAAATCAC; value = -0.0107

Set 3 — technique: RNA Bind-n-Seq; molecule type: RNA; matrix: in vitro; concentration: 200 nM; setting: whole 134-nt RNA, ends assumed; added: 150 mM KCl; relative to: input library; direction: higher = stronger binding; quantity: log2 enrichment
Target: Ras GTPase-activating protein-binding protein 1, full length (G3BP1, Homo sapiens, UniProt Q13283)
Sequence of UniProt Q13283 (whole entry, looked up): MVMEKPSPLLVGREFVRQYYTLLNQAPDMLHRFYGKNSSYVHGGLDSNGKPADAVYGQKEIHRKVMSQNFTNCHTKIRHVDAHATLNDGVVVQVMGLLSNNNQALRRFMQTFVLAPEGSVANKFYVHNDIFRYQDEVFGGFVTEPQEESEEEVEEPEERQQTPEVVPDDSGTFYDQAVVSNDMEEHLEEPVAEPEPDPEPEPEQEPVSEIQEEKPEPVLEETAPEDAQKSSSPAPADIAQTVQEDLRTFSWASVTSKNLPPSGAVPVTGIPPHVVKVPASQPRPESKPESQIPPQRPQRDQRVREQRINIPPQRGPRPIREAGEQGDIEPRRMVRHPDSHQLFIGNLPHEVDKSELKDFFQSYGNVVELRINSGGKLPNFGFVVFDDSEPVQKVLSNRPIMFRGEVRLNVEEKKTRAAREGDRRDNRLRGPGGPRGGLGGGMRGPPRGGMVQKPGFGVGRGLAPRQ
Sequence = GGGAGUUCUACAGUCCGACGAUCUGGCCCUGGUGGCAUGCGGGGAGGAAGAGGUGGCCUCAUGGAUCGUGUUGGUCCCGGUGGAAUGUUCAGAGGUGGCCGUGGUGGAGACAGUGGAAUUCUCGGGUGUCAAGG; value = 0.0577
Sequence = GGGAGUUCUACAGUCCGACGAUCAGUCCUGUGCUACACAUCGUAUGUACCGAAUCGGGGAAAAGGGGAAAAGGGAAAAGGAAAGUAUUAUGUUACGCCGUUCGGAUCUGCACUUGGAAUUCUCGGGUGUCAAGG; value = -0.47
Sequence = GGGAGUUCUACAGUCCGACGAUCACCAUGCAGGUGGACAUCUUUGGGAAGUGGGGCAAGGGGGGGAUAGGGAGGGGGGUAACACUUUGGGAACAGGUGGUCCCAGGUCGUUUCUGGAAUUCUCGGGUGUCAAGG; value = 1.17
Sequence = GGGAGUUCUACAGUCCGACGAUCUGGCCUGCACAUUCAGCUGCAUGAUGAAGUUCACUGUCAAGGACUGUGAUCCCACCACUGGGGAGACUGAUGACGAAGGCUAUGAGGAUGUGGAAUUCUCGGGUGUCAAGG; value = 0.516
Sequence = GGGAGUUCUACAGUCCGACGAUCUCCUCAAGUCCUGUGCUACACAUCGUAUGUACCGAAUCGGGGCGGCGGCGGGAAAGUAUUAUGUUACGCCGUUCGGAUCUGCACUUCCAGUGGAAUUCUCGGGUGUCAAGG; value = 0.207
Sequence = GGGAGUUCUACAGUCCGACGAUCAAGUCCUGUGCUACACAUCGUAUGUACCGAAUCGGGUUUGGGUUUUUGGGUUUGGGAAAGUAUUAUGUUACGCCGUUCGGAUCUGCACUUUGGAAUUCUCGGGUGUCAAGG; value = 0.278
Sequence = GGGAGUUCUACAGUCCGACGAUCAGUCCUGUGCUACACAUCGUAUGUACCGAAUCGGGGAAAAAGGGGAAAGGGGUGGGGAAAGUAUUAUGUUACGCCGUUCGGAUCUGCACUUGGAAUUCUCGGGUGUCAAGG; value = -0.0385
Sequence = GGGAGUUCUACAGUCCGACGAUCCUGUGCUACACAUCGUAUGUACCGAAUCGGGAAAAAAAGGGGAAAAAAAGGAAAAAAAGGGGAAAGUAUUAUGUUACGCCGUUCGGAUCUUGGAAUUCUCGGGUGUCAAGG; value = -0.731
Sequence = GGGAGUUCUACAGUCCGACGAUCGUCCUGUGCUACACAUCGUAUGUACCGAAUCGGUUUUUGGUUUUUUUGGUUUUUUUGGAAAGUAUUAUGUUACGCCGUUCGGAUCUGCACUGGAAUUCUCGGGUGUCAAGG; value = -1.23
Sequence = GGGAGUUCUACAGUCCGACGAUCCUGUGCUACACAUCGUAUGUACCGAAUCGGGUUUUUUUGGGGUUUUUUUGGGUUUUUUUGGGAAAGUAUUAUGUUACGCCGUUCGGAUCUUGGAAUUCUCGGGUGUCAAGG; value = -0.796

Set 4 — technique: protein binding microarray; molecule type: double-stranded DNA, one strand shown; matrix: in vitro; concentration: not given; relative to: not given; direction: higher = stronger binding; quantity: E-score
Target: Histone acetyltransferase KAT6A, winged helix 2, GST fusion (KAT6A, Homo sapiens, UniProt Q92794, residues 85-181)
Setting: 8-mer, flanks averaged, mean of 2 arrays, mostly near background
Construct (chain): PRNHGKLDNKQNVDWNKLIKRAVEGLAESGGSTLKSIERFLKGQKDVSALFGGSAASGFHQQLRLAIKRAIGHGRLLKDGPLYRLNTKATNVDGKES
Sequence = AATTAGCC; value = 0.144
Sequence = CACCATGA; value = 0.000435
Sequence = ACTTTTGC; value = 0.0885
Sequence = CGGGTACA; value = -0.092
Sequence = ATGCTGCG; value = 0.0123
Sequence = GCATGCCC; value = 0.103
Sequence = AAGATCTG; value = 0.00726
Sequence = CCAATATA; value = -0.122
Sequence = ACGTGAAT; value = -0.117
Sequence = CGGCGTCC; value = 0.278
Sequence = ATGTCCCA; value = -0.0422
Sequence = ACTAAGGC; value = -0.177
Sequence = CACTACCG; value = -0.0734
Sequence = AAATAACG; value = -0.0812
Sequence = CACCTTCG; value = 0.058
Sequence = GAATACCA; value = 0.0154
Sequence = ACGAGGTC; value = 0.215
Sequence = GGCCCGCC; value = 0.042
Sequence = CGTAATCA; value = 0.106
Sequence = CCTCGAGA; value = 0.0979

Set 5 — technique: DHFR PCA, deep sequencing; matrix: yeast; added: (+)-ABA 200 µM; relative to: wild-type fitted maximum; direction: higher = stronger binding; quantity: relative binding score
Target: ABI1, truncated, D143A, DHFR fusion (Arabidopsis thaliana)
Setting: methotrexate growth selection, single substitutions
Starting sequence: PYL1, truncated, DHFR fusion (Arabidopsis thaliana); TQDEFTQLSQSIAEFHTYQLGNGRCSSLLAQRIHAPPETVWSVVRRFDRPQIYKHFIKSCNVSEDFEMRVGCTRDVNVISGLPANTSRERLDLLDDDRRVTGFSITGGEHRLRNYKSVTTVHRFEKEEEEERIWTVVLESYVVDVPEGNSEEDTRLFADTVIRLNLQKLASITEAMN; partner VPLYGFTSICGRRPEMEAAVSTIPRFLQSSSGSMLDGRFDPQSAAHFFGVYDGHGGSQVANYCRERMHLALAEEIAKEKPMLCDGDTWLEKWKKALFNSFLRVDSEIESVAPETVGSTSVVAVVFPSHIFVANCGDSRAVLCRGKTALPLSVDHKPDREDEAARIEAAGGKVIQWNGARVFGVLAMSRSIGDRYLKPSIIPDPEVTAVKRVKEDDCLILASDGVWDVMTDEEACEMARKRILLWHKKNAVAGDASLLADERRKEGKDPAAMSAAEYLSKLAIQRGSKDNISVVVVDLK
Change = G107H; value = 86.2%
Change = V40T; value = 48.8%
Change = T119R; value = 8.17%
Change = C25S; value = 83.2%
Change = P37Y; value = 54.5%
Change = N85C; value = 98.7%
Change = C25A; value = 106%
Change = L8Q; value = 92.3%
Change = N22I; value = 94.4%
Change = D96P; value = 60.6%

Excerpt of the above (set 2):
Sequence = CCGTAACG; value = -0.249
Sequence = CATGCAGG; value = -0.231
Sequence = CAAATCAC; value = -0.0107
Sequence = CGAAGAAG; value = -0.0648
Sequence = CAACAGAG; value = -0.105
Sequence = ACACCAGC; value = -0.245
Sequence = AACTACAC; value = 0.216
Sequence = TTACTGAA; value = 0.195
